# Measurements gathered from unrelated publications.
# Protocols differ between the studies behind these lines. ± gives the spread as reported.
# Target: Urease (Canavalia ensiformis, UniProt P07374)
# Chain of UniProt P07374 (whole entry, looked up): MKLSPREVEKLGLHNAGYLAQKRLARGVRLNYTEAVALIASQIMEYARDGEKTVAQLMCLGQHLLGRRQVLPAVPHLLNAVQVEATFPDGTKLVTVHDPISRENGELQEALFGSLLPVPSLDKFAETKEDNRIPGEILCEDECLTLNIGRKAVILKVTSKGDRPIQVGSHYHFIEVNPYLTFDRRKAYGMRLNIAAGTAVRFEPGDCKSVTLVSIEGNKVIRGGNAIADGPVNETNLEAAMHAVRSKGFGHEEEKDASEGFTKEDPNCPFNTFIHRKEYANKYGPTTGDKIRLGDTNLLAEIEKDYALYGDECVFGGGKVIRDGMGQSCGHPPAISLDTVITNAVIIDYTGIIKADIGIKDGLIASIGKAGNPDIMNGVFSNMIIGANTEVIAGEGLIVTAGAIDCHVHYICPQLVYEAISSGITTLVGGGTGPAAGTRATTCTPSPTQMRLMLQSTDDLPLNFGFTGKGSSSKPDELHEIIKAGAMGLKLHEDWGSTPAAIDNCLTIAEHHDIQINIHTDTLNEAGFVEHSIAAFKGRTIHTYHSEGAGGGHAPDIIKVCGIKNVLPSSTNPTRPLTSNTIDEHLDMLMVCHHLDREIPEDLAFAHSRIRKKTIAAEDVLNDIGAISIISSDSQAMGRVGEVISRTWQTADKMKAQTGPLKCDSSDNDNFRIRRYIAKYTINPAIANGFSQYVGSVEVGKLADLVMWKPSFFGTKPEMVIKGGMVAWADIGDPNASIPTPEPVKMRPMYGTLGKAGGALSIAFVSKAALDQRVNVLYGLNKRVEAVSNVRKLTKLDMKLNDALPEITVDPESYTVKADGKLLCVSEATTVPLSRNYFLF
# Mode: inhibitor
SMILES,test,setting,IC50
COc1ccc(OCc2nn3c(-c4cccc(Br)c4)nnc3s2)cc1,enzyme activity,,28.4 µM
COc1ccc(/C=N/NC(=O)c2ccc(C(=O)N/N=C/c3ccc(OC)c(OC)c3)cc2)cc1OC,enzyme activity,,81.7 µM
CC(O)c1nc2ccc(Br)cc2[nH]1 (racemic),"enzyme activity, absorbance",,46 µM
O=C(N/N=C/c1ccc(O)cc1O)c1ccc(C(=O)N/N=C/c2ccc(O)cc2O)cc1,enzyme activity,,51.5 µM
Brc1cccc(-c2nnc3n2N=C(c2ccc(-c4ccccc4)cc2)CS3)c1,enzyme activity,,5.79 µM
FC(F)(F)c1cccc(NC(=S)N2CCc3ccccc3C2)c1,"enzyme activity, absorbance",,26.5 µM
COC(=O)C1=C(C)NC(=O)CC1c1ccc(Cl)cc1 (centres unmarked),"enzyme activity, absorbance",pH 7.4,84.1 µM
COc1cccc(/C=N/NC(=O)c2ccc(C(=O)N/N=C/c3cccc(OC)c3O)cc2)c1O,enzyme activity,,65.7 µM
COC(=O)C1=C(C)NC(=O)CC1c1ccc(Cl)cc1Cl (centres unmarked),"enzyme activity, absorbance",pH 7.4,82 µM
COc1ccc(OCc2nn3c(-c4ccc(OC)cc4)nnc3s2)cc1,enzyme activity,,8.14 µM
COC(=O)C1=C(C)NC(=O)CC1c1ccccc1 (centres unmarked),"enzyme activity, absorbance",pH 7.4,131 µM
CC(O)c1nc2ccc([N+](=O)[O-])cc2[nH]1 (racemic),"enzyme activity, absorbance",,66 µM
COC(=O)C1=C(C)NC(=O)CC1c1ccc(OC)cc1OC (centres unmarked),"enzyme activity, absorbance",pH 7.4,102 µM
COc1cc(-c2nc3cc(C(=O)N4CCN(c5ccccc5)CC4)ccc3[nH]2)ccc1OCC(=O)Nc1cccc(C)c1,,pH 7.4,0.86 ± 0.08 µM
